Measured values gathered from unrelated publications.
Every numbered part comes from another study and shows a few of its results, in no order.

Series 1
Target: Protein max, full length (MAX, Homo sapiens, UniProt P61244-2, residues 1-151)
Technique: protein-binding microarray
Form: double-stranded DNA, one strand shown
Matrix: in vitro
Tested at: not given
Setting: k-mer, scored over probes, only values ≥0.25
Direction: higher = stronger binding
For `CATGTTCG`, the E-score was 0.283.
The E-score of `CATGTCCC` is reported as 0.265.
For `ACGTGGCG`, the E-score was 0.451.
With `CGTGGCGC` the E-score was 0.378.
`CTCGCACA` gave an E-score of 0.256.

Series 2
Target: Prothrombin, mature alpha-thrombin (F2, Homo sapiens, UniProt P00734)
Technique: aptamer microarray, sandwich
Form: DNA with 2'F-ANA
Matrix: in vitro
Tested at: 200 nM
Setting: whole 15-mer aptamer, many near background
Added: Cy3 exosite-II aptamer, 400 nM
Direction: higher = stronger binding
Oligonucleotide: GGTTGGTGTGGTTGG
Under “mean fluorescence intensity”, `2'F-ANA at 1 2 4 5 7 9 14 15` is recorded as 45.6 a.u.
Under “mean fluorescence intensity”, `2'F-ANA at 3 5 6 7 9 11 12 13` is recorded as 169 a.u.
`2'F-ANA at 1 2 3 6 7 9 11 15` — result for “mean fluorescence intensity”: 121 a.u.
Under “mean fluorescence intensity”, `2'F-ANA at 3 4 5 7 8 10 11 12 15` is recorded as 64.3 a.u.
Under “mean fluorescence intensity”, `2'F-ANA at 1 3 5 7 9 13 14 15` is recorded as 48.8 a.u.

Series 3
Target: Centromere-binding protein 1, full length, His-tagged (CBF1, Saccharomyces cerevisiae, UniProt P17106, residues 1-351)
UniProt P17106, sequence (whole entry, looked up): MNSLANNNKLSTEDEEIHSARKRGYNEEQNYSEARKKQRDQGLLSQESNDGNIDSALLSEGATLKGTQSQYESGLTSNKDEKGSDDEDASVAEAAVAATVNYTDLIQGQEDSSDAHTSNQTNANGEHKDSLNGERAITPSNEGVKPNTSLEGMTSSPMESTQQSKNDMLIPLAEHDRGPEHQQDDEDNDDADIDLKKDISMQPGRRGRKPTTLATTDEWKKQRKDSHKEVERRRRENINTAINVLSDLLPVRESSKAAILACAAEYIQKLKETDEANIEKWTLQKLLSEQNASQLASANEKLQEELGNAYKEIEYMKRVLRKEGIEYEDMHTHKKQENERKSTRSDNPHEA
Technique: competition protein-binding microarray
Form: double-stranded DNA, one strand shown
Matrix: in vitro
Tested at: 2 µM
Setting: whole 60-bp probe, lowest competitor level
Added: Pho4 competitor, 0.05 µM
Direction: higher = stronger binding
Shared flanks, not repeated: … GTCTTGATTCGCTTGACGCTGCTG
The fluorescence intensity of `TCGGAGTACAATCCAGTCGTGCCAGTCGAATGGTAG` is reported as 67.8 a.u.
`CAGTCAAAAGAACAGCATCGATGTCCAATGGGTCTA` gave a fluorescence intensity of 61.9 a.u.
The fluorescence intensity of `GAATGGAGTAAAGGCAGCGTGGGTACCCTGTGGAAA` is reported as 66.3 a.u.
For `AAAGATTTGCCTTTGCCCGTGCCGAAAGCAGGCTGT`, the fluorescence intensity was 67.5 a.u.
`GCCACTGAGAATGAGCGCGTGGGACAGAAACGGTGG` gave a fluorescence intensity of 97.9 a.u.
With `TGACATTGCCACCATCACGTTGTCAAACTTTGCCGG` the fluorescence intensity was 308 a.u.
The fluorescence intensity of `GTCTTGTCTCATTGGAAGGTGGGTGTCCCCACTTCA` is reported as 73.3 a.u.
With `GTCTTGTCTCATTGTCACCTAACTTTCCCCACTTCA` the fluorescence intensity was 94.7 a.u.

Mixed results
The fold induction of `PhoQ, residues 284 288 289 292 302 303 SLANKL` is reported as 1.9 (PhoP, residues 12 14 15 18 19 LFHKL (Escherichia coli, UniProt P23836); Sort-seq, measured: YFP reporter; E. coli; PhoQ-PhoP variant library, added: 10 µM Mg2+; reference: high Mg2+ state, higher = stronger signaling).
